Measurements collected from several papers.
Each numbered part is a random draw from the data of one study; scales do not carry over between parts. Substitutions count along the parent as printed.
Chain of UniProt O94804 (whole entry, looked up): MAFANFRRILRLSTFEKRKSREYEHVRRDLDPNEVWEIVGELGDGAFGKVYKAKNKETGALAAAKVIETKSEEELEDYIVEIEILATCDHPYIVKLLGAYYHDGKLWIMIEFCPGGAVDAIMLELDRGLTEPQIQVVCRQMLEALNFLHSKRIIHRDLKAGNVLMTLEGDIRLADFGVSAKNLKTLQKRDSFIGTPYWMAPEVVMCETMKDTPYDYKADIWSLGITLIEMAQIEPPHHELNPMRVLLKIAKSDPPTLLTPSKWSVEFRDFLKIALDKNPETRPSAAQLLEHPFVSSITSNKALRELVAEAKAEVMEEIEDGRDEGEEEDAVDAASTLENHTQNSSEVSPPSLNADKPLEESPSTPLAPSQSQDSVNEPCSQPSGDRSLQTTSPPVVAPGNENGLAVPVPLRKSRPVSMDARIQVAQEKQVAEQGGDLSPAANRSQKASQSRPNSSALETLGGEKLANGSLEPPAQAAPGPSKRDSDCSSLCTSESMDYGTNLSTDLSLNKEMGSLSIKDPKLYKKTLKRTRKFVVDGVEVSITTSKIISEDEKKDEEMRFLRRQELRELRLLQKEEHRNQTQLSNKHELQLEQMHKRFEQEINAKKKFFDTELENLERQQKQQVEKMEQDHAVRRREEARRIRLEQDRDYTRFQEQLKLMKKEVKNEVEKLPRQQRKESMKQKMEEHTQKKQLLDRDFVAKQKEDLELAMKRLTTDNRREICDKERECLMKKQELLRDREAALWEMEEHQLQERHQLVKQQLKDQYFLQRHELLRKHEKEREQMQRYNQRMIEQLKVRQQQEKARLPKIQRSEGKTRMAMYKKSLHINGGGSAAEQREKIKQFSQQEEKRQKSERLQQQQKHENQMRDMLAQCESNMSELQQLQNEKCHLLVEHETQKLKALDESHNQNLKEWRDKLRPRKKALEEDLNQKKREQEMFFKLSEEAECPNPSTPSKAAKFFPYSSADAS
Chain of UniProt Q8N5S9 (whole entry, looked up): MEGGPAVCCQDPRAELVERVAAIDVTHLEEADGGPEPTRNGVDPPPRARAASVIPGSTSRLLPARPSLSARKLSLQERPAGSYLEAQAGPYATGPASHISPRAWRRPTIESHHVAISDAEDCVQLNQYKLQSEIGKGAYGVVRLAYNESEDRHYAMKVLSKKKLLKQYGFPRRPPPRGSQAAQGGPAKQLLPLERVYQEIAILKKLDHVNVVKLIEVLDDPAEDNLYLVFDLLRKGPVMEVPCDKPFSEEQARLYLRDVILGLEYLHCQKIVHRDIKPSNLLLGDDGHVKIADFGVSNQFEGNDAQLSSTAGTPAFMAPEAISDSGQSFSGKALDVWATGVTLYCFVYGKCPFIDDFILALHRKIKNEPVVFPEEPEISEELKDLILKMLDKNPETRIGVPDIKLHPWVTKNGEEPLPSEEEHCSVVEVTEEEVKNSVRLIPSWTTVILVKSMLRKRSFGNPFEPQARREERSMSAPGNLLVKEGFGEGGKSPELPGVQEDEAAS
Chain of UniProt P07948 (whole entry, looked up): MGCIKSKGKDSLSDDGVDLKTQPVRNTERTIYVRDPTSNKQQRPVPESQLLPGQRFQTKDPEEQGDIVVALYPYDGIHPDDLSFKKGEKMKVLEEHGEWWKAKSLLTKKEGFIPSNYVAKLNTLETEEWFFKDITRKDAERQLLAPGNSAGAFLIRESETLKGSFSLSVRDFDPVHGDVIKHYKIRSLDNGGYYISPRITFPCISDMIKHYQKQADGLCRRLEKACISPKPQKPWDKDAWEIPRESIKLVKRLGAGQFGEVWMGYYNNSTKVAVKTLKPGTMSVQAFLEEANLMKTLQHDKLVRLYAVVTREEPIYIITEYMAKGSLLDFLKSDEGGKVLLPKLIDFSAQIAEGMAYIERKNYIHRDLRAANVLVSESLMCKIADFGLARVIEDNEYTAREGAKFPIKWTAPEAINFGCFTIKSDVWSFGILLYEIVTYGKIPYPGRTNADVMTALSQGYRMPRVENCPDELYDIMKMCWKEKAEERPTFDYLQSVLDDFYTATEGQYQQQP
Chain of UniProt P23443 (whole entry, looked up): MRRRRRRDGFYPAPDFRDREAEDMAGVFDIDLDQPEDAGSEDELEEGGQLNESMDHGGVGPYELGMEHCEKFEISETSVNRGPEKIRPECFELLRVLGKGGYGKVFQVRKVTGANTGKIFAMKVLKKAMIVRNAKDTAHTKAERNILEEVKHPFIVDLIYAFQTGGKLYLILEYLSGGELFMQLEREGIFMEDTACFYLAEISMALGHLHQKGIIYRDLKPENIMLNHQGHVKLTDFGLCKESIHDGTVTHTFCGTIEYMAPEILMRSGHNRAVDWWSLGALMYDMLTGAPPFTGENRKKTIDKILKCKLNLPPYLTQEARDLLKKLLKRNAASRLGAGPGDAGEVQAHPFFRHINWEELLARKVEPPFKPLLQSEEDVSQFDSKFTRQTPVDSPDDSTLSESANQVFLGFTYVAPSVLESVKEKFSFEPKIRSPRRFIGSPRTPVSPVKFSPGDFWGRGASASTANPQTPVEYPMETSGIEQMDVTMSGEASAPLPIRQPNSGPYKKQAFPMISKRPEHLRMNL
Chain of UniProt P06241 (whole entry, looked up): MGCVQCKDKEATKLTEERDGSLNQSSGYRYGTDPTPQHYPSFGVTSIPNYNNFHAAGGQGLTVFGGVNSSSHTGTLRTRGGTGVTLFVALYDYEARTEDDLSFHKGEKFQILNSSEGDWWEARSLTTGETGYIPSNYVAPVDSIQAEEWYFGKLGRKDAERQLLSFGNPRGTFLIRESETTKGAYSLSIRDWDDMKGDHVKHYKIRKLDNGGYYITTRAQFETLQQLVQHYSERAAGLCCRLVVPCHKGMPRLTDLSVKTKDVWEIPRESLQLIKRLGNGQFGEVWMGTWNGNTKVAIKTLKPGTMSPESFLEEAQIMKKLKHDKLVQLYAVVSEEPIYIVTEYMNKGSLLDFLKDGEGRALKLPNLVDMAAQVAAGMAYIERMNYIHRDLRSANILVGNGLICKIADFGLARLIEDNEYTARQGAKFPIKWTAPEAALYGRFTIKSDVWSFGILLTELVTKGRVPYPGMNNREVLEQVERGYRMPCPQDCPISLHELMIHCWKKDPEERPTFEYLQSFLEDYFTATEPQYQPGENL
Chain of UniProt P00519 (whole entry, unmodified, looked up): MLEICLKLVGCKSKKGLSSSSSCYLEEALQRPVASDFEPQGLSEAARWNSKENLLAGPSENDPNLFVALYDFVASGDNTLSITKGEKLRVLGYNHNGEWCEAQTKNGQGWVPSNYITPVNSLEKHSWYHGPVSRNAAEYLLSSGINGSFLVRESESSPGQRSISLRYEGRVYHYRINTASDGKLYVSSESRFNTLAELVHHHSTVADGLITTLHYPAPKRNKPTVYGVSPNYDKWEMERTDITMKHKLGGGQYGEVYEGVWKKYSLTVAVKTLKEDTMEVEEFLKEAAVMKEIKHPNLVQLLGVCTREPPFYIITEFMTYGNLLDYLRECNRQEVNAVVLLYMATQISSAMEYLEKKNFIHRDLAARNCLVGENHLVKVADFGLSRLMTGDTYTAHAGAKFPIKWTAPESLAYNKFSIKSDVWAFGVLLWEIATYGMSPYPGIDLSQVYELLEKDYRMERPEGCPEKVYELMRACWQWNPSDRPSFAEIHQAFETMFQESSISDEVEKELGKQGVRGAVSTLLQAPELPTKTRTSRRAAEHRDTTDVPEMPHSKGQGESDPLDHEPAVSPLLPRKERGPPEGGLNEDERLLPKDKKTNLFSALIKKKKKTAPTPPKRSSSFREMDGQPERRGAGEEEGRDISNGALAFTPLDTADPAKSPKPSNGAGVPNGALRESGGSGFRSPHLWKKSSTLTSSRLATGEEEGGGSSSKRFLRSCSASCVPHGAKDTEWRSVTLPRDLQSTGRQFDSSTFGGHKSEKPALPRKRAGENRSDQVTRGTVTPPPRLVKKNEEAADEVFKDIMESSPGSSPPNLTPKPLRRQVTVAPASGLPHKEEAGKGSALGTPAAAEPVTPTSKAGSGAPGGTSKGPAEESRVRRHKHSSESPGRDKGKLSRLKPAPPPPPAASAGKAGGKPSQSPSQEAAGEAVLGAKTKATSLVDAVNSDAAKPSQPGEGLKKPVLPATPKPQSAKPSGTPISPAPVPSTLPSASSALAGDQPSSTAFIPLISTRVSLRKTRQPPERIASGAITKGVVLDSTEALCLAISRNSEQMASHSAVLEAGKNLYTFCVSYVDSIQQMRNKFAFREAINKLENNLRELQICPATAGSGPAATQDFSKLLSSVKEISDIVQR

Block 1
Target: ATF7, bZIP domain (human)
Method: DHFR protein complementation
Sample: yeast
Setting: single substitutions, most at no-binding floor
Relative to: wild-type JUN-FOS pair
Direction: higher = stronger binding
Starting sequence: JUN, bZIP domain (human); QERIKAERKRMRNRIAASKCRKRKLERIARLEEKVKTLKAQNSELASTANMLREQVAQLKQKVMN; partner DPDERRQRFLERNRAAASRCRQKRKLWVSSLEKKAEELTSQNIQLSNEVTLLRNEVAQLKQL
| Change | binding fitness |
| --- | --- |
| L38K | -1.4 natural log |
| A29Y | -0.732 natural log |
| L38Q | -1.47 natural log |
| L52F | -1.46 natural log |
| K39V | -1.05 natural log |
| E54Q | -1.23 natural log |
| T48R | -1.16 natural log |
| A46V | -0.937 natural log |

Block 2
SMILES: COc1cc(Nc2c(C#N)cnc3cc(OCCCN4CCN(C)CC4)c(OC)cc23)c(Cl)cc1Cl
Read-out: enzyme activity
Mode: inhibitor
Tested at: 0.5 µM
Relative to: control
| target | remaining activity [%] |
| --- | --- |
| Tyrosine-protein kinase Lyn, isoform B (LYN, Homo sapiens, UniProt P07948) | 6 |
| STK10 (Homo sapiens, UniProt O94804) | 12.6 |
| PRKCA (Homo sapiens, UniProt P17252) | 49.5 |
| cGMP-dependent protein kinase 1, isoform beta (PRKG1, Homo sapiens, UniProt Q13976) | 94.9 |

Block 3
SMILES: CC(C)(O)c1cncc(-c2nc3ccc(F)cc3n2C2CC2)c1
Read-out: cell-free assay
Method: competition with immobilised ligand
Tested at: 1 µM
| target | remaining binding [%] |
| --- | --- |
| RPS6KB1 (Homo sapiens, UniProt P23443) | 100 |
| TSSK1B (Homo sapiens, UniProt Q9BXA7) | 97 |
| Ribosomal protein S6 kinase alpha-5, N-terminal kinase domain (RPS6KA5, Homo sapiens, UniProt O75582) | 100 |
| FYN (Homo sapiens, UniProt P06241) | 100 |
| CAMKK1 (Homo sapiens, UniProt Q8N5S9) | 100 |
| Tyrosine-protein kinase ABL1, phosphorylated (ABL1, Homo sapiens, UniProt P00519, F317L) | 100 |

Block 4
Target: RNA binding protein fox-1 homolog 2, RRM domain, GST-SBP tag (RBFOX2, Homo sapiens, UniProt O43251-10, residues 100-194)
Method: RNA Bind-n-Seq
Form: RNA
Sample: in vitro
Tested at: 365 nM
Setting: natural RNA segment, single round, ends assumed
Relative to: no-protein control
Direction: higher = stronger binding
Construct (chain): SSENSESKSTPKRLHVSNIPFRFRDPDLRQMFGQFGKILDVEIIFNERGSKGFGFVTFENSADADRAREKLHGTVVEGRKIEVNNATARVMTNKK
| Sequence | RBNS enrichment (R) |
| --- | --- |
| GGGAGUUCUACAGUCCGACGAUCCGGUCAAGGCUUUGGAGCCACUCUUUUGUAACUCCAGAUUAUUUAAAGAGAAAAGUACAAGACAGAAAUCUUCUAGCACUUUGUAAACACAGUGAAUAACCUCUUGGAGUUGGAAUUCUCGGGUGCCAA | 0.358 |
| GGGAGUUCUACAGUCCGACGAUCUGAGGUCCCAGAGCCUGUUCCGUUGGCCCUGGGCCGAGGCCCACAGGUGCUGCCCUUGCUGCUGCUGGUCGGGCACCCAAGUGCGUGAGGGGCUUCAGCCUGUCCCGGGGUGGAAUUCUCGGGUGCCAA | 0.579 |
| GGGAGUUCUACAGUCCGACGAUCCAAGAGGCACACAGAGACAGACCAACUGGCAGCCAGGCAGCCCCAGAGGAGAGAGACAUUCAGACAGAGGAAAGUCUCCCUGCCCCUCAUUCCUUCCAAGAUGAGAAAAAUGGAAUUCUCGGGUGCCAA | 0.5 |
| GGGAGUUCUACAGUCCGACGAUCUGUGGAGUAUUUACUUGCUCAGUAACUGUGACUGUUGUCUAUUGAGACCUAGCCUAGUUUUCCUGCAGACAAUGAAUGAAGUGUGCUCAUUGAAAUAAAAUACAGAGUCAUGGAAUUCUCGGGUGCCAA | 0.405 |
| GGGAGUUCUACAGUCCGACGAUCUGGGCUGGAGAGCCUCUCUGUGCAGCGGUGUGGGGUGAGCCCUGCUGUGGCCUCCUUGUGGUGGUCCCUCUUCCCACGUGCAGCCCUGUUGGGAAGAAAGGAAGAAAACAUGGAAUUCUCGGGUGCCAA | 0.434 |
| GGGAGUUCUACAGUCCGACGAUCGACCUCUGAGAAGUUGGAGAAGUCAGGAAAUUGUACUCUCCACACCGUCCUGGUUUAGUGGAUGGGGAGGAUGGGGUGACGGCUUACCAGCUGUAUUAUGUACUGUACUGUGGAAUUCUCGGGUGCCAA | 0.467 |
| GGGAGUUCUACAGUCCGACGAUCCCUGCCUGCAAAGGUUCCCUGCAUGCCUCUUCCCCUGAGCCCAGGGGUACCUGGUCCCCAUUUCCUACUCCUCUUUUAACAAAAGAGAAAAGAAUUCCAAACCACCACCAUGGAAUUCUCGGGUGCCAA | 16 |
| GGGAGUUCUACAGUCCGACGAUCAUCUGGUGCCAAAUGAAGAUUUUUAGGAGUGAUUACUAAUUAUCAAGGGCACAGUUGUGGUACUGUCAUUGAUAAUAAUAUAGUUUUUUUUUUUUUCCUAAUUUUGACCUUGGAAUUCUCGGGUGCCAA | 0.845 |

Some of these lines once more (block 3):
| target | remaining binding [%] |
| --- | --- |
| RPS6KB1 (Homo sapiens, UniProt P23443) | 100 |
| Ribosomal protein S6 kinase alpha-5, N-terminal kinase domain (RPS6KA5, Homo sapiens, UniProt O75582) | 100 |
